Measurements gathered from unrelated publications.
Each line is one published result; not all experiments were run side by side. Values joined by “and” are separate records of one study, mostly repeats; a detail may differ. ± gives the spread as reported.
Oprm1: Mu-type opioid receptor (Oprm1, Mus musculus, UniProt P42866)
SIGMAR1: Sigma non-opioid intracellular receptor 1 (SIGMAR1, Cavia porcellus, UniProt Q60492)
Tmem97: Sigma intracellular receptor 2 (Tmem97, Mus musculus, UniProt Q8VD00)
OPRM1: Mu-type opioid receptor (OPRM1, Homo sapiens, UniProt P35372)
Sigmar1: Sigma non-opioid intracellular receptor 1 (Sigmar1, Rattus norvegicus, UniProt Q9R0C9)
Glutamate receptor ionotropic, kainate 1: Glutamate receptor ionotropic, kainate 1 (Rattus norvegicus, UniProt P22756)

Structure (SMILES) | target or system | test | system | setting | endpoint | value
CCCCCCCSCC(=O)c1ccccc1O | KAT8 (Homo sapiens, UniProt Q9H7Z6) | enzyme activity, inhibitor | – | up to 400 µM, added: 4 µM acetyl-CoA, 60 µM histone substrate | Ki | no inhibition
Nc1ccccc1C(=O)O | mushroom tyrosinase | diphenolase activity, inhibitor | – | pH 6.8, 20 °C, added: caffeic acid substrate | Ki | 4.72 µM
CCNC(=O)[C@H]1O[C@@H](n2cnc3c(N)nc(NCCc4ccc(CCC(=O)NCCN)cc4)nc32)[C@H](O)[C@@H]1O | ADORA3 (Homo sapiens, UniProt P0DMS8) | ligand displacement, radioligand | – | cell membranes | Ki | 0.038 µM
CC(=O)P(=O)(O)OCc1ccccc1 | dxs (Escherichia coli, UniProt P77488) | uncompetitive inhibitor, IspC-coupled spectrophotometric | – | added: D-GAP | Ki | 70 ± 8 µM
CN(C(=O)/C=C/c1ccoc1)[C@H]1CC[C@@]2(O)[C@H]3Cc4cccc5c4[C@@]2(CCN3CC2CC2)[C@H]1O5 | Oprm1 | ligand displacement, radioligand | – | – | Ki | 0.00959 µM
COc1cc(O)c2c(c1)oc(=O)c1c3cc(O)c(O)cc3oc21 | Genome polyprotein, NS5B polymerase (Hepatitis C virus genotype 1b, UniProt P26663) | RNA polymerase activity, noncompetitive inhibitor vs UTP | – | added: UTP 2.5 to 80 µM varied, poly rA/U12 0.25 µM | Ki | 8.4 µM
O=C(O)[C@H]1NC[C@@H]2C(O)=NO[C@@H]21 | Slc1a1 (Rattus norvegicus, UniProt P51907) | anion current, inhibitor, whole-cell patch clamp | HEK-293T | homo-exchange mode, added: glutamate 20 µM | Ki | 19 ± 3.3 µM
CC[C@H](C)CN(C[C@@H](O)[C@H](Cc1ccccc1)NC(=O)[C@@H](NC(C)=O)[C@@H](C)CC)S(=O)(=O)c1ccc2ncsc2c1 | Gag-Pol polyprotein, protease (Human immunodeficiency virus type 1 group M subtype B, UniProt P03369, A561V/G563S/I574V/L500I/L580M) | – | – | – | Ki | 4.8e-05 ± 2.2e-05 µM
CCCCCCCCCCCCC/C=C/[C@H](O)[C@@H](N)CO | SIGMAR1 | ligand displacement, radioligand | – | cell membranes | Ki | 8.3 µM
O=C(/C=C/c1ccoc1)N[C@@H]1CC[C@@]2(O)[C@H]3Cc4ccc(O)c5c4[C@@]2(CCN3CC2CC2)[C@H]1O5 | Oprd1 (Mus musculus, UniProt P32300) | binding, radioligand displacement | – | added: [3H]diprenorphine | Ki | 0.00474 ± 0.00085 µM
N[C@H](CCC(=O)O)C(=O)O | anandamide membrane transporter, mouse | [3H]anandamide uptake, non-competitive inhibitor | mouse brain synaptosomes | – | Ki | 1.1 ± 0.09 µM
CCCN(CCC1(O)CC(NS(=O)(=O)c2ccccc2)C1)[C@H]1CCc2nc(N)sc2C1 (stereo in doubt) | dopamine D1-like receptor, rat | radioligand binding | rat striatal membranes | added: [3H]SCH23390 | Ki | 57 ± 2.83 µM
CC[C@H](C)CCCCC(=O)N[C@@H](CCN)C(=O)N[C@H](C(=O)N[C@@H](CCN)C(=O)N[C@H]1CCNC(=O)[C@H]([C@@H](C)O)NC(=O)[C@H](CCN)NC(=O)[C@H](CCN)NC(=O)[C@H](CC(C)C)NC(=O)[C@@H](CC(C)C)NC(=O)[C@H](CCN)NC1=O)[C@@H](C)O | lipopolysaccharide | binding, displacement | Salmonella enterica | – | Ki | 0.6 ± 0.1 µM
O=C(OCCN1CCOCC1)C1(c2ccccc2)CCCCC1 | Sigma-2 receptor/TMEM97 (Cavia porcellus, UniProt H0V073) | binding | guinea pig brain | sigma-2 site, high-affinity site, added: 3 nM [3H]DTG, (+)-pentazocine | Ki | 32.1 µM
C[C@]1(C(=O)O)C[C@H]1[C@H](N)C(=O)O.Cl | kainate receptor, rat | [3H]kainate displacement | cortical synaptosomes | – | Ki | 0.11 µM
N=C(N)NCCC[C@H](NC(=O)[C@H](Cc1c[nH]c2ccccc12)NC(=O)[C@H](CCCCN)NC(=O)CNC(=O)CCC(=O)N/N=C/c1ccc(/C=N/NC(=O)CCC(=O)NCC(=O)N[C@@H](CCCCN)C(=O)N[C@@H](Cc2c[nH]c3ccccc23)C(=O)N[C@@H](CCCNC(=N)N)C(N)=O)cc1)C(N)=O | Tryptase beta-2 (TPSB2, Homo sapiens, UniProt P20231) | non-competitive inhibitor | – | – | Ki | 0.0656 ± 0.0023 µM
Nc1ccn([C@H]2C[C@H](O)[C@@H](COP(=O)(O)NP(=O)(O)OP(=O)(O)O)O2)c(=O)n1 | SAMHD1 (Homo sapiens, UniProt Q9Y3Z3) | enzyme activity, inhibitor | – | added: dTTP 100 µM | Ki | 0.045 ± 0.0053 µM
CCCCN1C(=O)C(C=CC=CC=C2C(=O)N(c3ccc(S(=O)(=O)O)cc3)N=C2C)C(=O)N(CCCC)C1=O | SLC4A1 (Homo sapiens, UniProt P02730) | chloride exchange, 36Cl flux, item: inward-facing unloaded transporter | – | 0 °C, Dixon plot, initial binding | Ki | 1.6 ± 0.4 µM
CCCSC[C@H]1O[C@@H](n2cnc3c2N=CNC[C@H]3O)C[C@@H]1O | MTA/SAH deaminase (Pseudomonas aeruginosa, UniProt Q9HZ64) | inhibitor | – | pH 7.4, 25 °C, added: MTA 100 µM | Ki | 6.7e-05 ± 5e-06 µM
Nc1nc2c(c(=O)[nH]1)N1CN(c3ccc(C(=O)N[C@@H](CCC(=O)O)C(=O)O)cc3)CC1CN2 (stereo partly shown) | Thymidylate synthase (Escherichia coli K-12, UniProt P0A884) | substrate inhibition, noncompetitive kinetic isotope effect | – | pH 7.5, 25 °C, MgCl2 50 mM, added: dUMP 100 µM | Ki | 760 ± 70 µM
CN(C)CCN(C)CCc1ccc(Cl)c(Cl)c1 | SIGMAR1 | ligand displacement, radioligand | – | – | Ki | 0.00313 µM
Cc1cc(O)cc(C)c1C[C@H](N)C(=O)N[C@@H]1CCNc2ccc(Cc3cccc4ccccc34)cc21 | OPRK1 (Homo sapiens, UniProt P41145) | ligand displacement, radioligand | – | cell membranes | Ki | 0.017 µM

Structure (SMILES) | target or system | test | system | setting | endpoint | value
COP(=O)(O)C(C)=O | dxs (Escherichia coli, UniProt P77488, H49A) | enzyme activity, inhibitor | – | added: D-GAP 500 µM, pyruvate 2 mM | Ki | 125 µM
COc1ccc(CCN2CCN(C/C=C/I)CC2)cc1OC | Tmem97 | ligand displacement, radioligand | – | cell membranes | Ki | 1.45 µM
CC(C)[C@@H](CN1CCC(c2cccc(O)c2)CC1)NC(=O)[C@H]1Cc2ccccc2CN1 | OPRM1 | ligand displacement, radioligand | – | – | Ki | 0.164 µM
CC=O | ADH1 (Saccharomyces cerevisiae, UniProt P00330, H45R/H49Q) | product inhibition slope, inhibitor | – | pH 7.3, 30 °C | Ki | 1100 µM
NC(=O)CCC(N)C(=O)O (stereo in doubt) | anandamide membrane transporter rat | [3H]anandamide uptake, non-competitive inhibitor | brain synaptosomes | – | Ki | 0.43 ± 0.045 µM
CCCCCCCC(=O)Nc1ccc(C=Cc2ccc(NC(=O)CCCCCCC)cc2S(=O)(=O)O)c(S(=O)(=O)O)c1 | H(+)/Cl(-) exchange transporter ClcA (clcA, Escherichia coli, UniProt P37019) | – | – | – | Ki | 3 µM and ~3 µM
Cc1ccc2c(c1)C1CN(C)CCC1N2C(=O)CSc1nnnn1-c1ccc(Cl)cc1 (stereo not shown) | Tmem97 | ligand displacement, radioligand | – | cell membranes | Ki | 1.26 µM
O=C(O)C1CCC1 | putA, PRODH domain (Escherichia coli, UniProt P09546) | competitive inhibitor | – | pH 7.5, room temperature, added: L-proline | Ki | 1900 ± 200 µM
CCOP(=O)(COc1ccc(C[C@H](NC(=O)O[C@H]2CO[C@H]3OCC[C@H]32)[C@H](O)CN(CC(CC)CC)S(=O)(=O)c2ccc(N)cc2)cc1)OCC | Protease (Human T-cell leukemia virus type I, UniProt Q82134, L40I) | – | – | – | Ki | 0.03 ± 0.01 µM
c1ccc(CCN2CCCCC2)cc1 | Sigmar1 | ligand displacement, radioligand | – | – | Ki | 0.03 µM
O=C(O)C[C@H]1CCN[C@@H]1C(=O)O | Glutamate receptor ionotropic, kainate 1 | ligand displacement, radioligand | – | – | Ki | 2.8 µM
CN(CCOCCCc1ccccc1)Cc1ccccc1 | OPRM1 | – | – | – | Ki | 2.76 to 3.04 µM
c1ccc(CCN2CCCCC2)cc1 | Sigmar1 | radioligand binding | rat liver membranes | added: [3H](+)-pentazocine 5 nM | Ki | 0.0743 ± 0.0021 µM
Nc1nc(Cl)nc2c1ncn2[C@H]1C[C@H](O)[C@@H](CO)O1 | ADORA1 (Homo sapiens, UniProt P30542) | ligand displacement, radioligand | – | cell membranes | Ki | 1.57 µM
O=C(O)c1cc(NC(=O)c2ccccc2)cc([C@H]2CCN[C@@H]2C(=O)O)c1 (racemic) | Glutamate receptor ionotropic, kainate 1 | ligand displacement, radioligand | – | cell membranes | Ki | 18.5 µM
CN(C(N)=Nc1cccc2ccccc12)c1cccc(I)c1 | NMDA receptor PCP site, rat | radioligand binding | rat brain homogenate | 2 h, 23 °C, added: [3H](+)-MK-801 0.50 nM, L-glutamate 100 µM, glycine 30 µM | Ki | 0.00165 ± 0.00016 µM
CCCCCCCCCCCCCCC[C@@H](O)[C@@H](N)CO | SIGMAR1 | ligand displacement, radioligand | – | – | Ki | 0.07 µM
O=C(/C=C/c1ccoc1)N[C@H]1CC[C@@]2(O)[C@H]3Cc4cccc5c4[C@@]2(CCN3CC2CC2)[C@H]1O5 | Oprm1 | ligand displacement, radioligand | – | – | Ki | 0.0873 µM
CN[C@@](C)(C[18F])C(=O)O | – | – | SCID mouse MDA-MB-468 xenograft, brain | 120 min, post injection | tissue uptake | 0.3 ± 0.1 %ID/g
COc1cc2c(cc1OCCCF)CCN1CC(CC(C)C)C(C3CO3)CC21 (racemic) | Slc18a2 (Rattus norvegicus, UniProt Q01827) | binding | rat striatal homogenate | added: [3H](±)-tetrabenazine | Ki | 0.00015 ± 1e-05 µM
COc1cc(O)c2c(O)c3c(=O)cc(C)oc3cc2c1 | MAOA (Homo sapiens, UniProt P21397) | inhibitor | – | uncompetitive, ES complex | Ki | 5.96 µM

Some of these lines once more:
Structure (SMILES) | target or system | test | system | setting | endpoint | value
CC=O | ADH1 (Saccharomyces cerevisiae, UniProt P00330, H45R/H49Q) | product inhibition slope, inhibitor | – | pH 7.3, 30 °C | Ki | 1100 µM
NC(=O)CCC(N)C(=O)O (stereo in doubt) | anandamide membrane transporter rat | [3H]anandamide uptake, non-competitive inhibitor | brain synaptosomes | – | Ki | 0.43 ± 0.045 µM
CCCCCCCC(=O)Nc1ccc(C=Cc2ccc(NC(=O)CCCCCCC)cc2S(=O)(=O)O)c(S(=O)(=O)O)c1 | H(+)/Cl(-) exchange transporter ClcA (clcA, Escherichia coli, UniProt P37019) | – | – | – | Ki | 3 µM and ~3 µM
